Measured values pooled from the literature.
Lines come from different studies, so protocols differ. Numbers after ± are the reported error.
UniProt P08684, sequence (whole entry, looked up): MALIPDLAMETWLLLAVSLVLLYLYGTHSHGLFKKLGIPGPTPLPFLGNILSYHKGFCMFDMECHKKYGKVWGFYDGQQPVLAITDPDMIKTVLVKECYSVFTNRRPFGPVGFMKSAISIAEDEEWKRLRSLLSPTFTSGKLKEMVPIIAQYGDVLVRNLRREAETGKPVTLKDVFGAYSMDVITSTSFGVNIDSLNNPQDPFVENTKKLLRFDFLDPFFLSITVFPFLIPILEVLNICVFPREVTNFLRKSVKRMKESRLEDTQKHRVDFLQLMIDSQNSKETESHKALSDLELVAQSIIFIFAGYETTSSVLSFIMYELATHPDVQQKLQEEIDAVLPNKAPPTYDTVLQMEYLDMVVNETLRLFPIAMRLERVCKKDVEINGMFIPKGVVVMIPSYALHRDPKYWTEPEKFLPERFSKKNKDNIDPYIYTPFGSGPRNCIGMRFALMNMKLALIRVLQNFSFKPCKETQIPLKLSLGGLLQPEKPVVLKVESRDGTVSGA

CC/C=C\C/C=C\C/C=C\C/C=C\C/C=C\CCCCOC(CC)C(=O)O (stereo not shown)  radioactivity concentration ([14C] label; male Wistar rat, subcutaneous fat; oral, 100 mg/kg, 2 h): 14.6 µg equiv/g
COC(=O)C(c1ccccc1Cl)N1CCC2SC(=O)C=C2C1 (stereo not shown)  measured concentration (LC-MS/MS; human plasma; 50 ng/mL spiked, 45 days, -80 °C): 50.6 ± 1.2 ng/mL
CCOC(=O)c1[nH]c(C)c(/C=C/c2c(I)c(C)c3n2[B-](F)(F)[N+]2=C(C)C(I)=C(C)C2=C3c2cc(OC)cc(OC)c2)c1C  Stokes shift (DMSO): 690 cm⁻¹
CCN(CC)c1ccc2c(-c3ccc(S(=O)(=O)NCCNC(=O)CN4CCN(CC(=O)[O-])CCN(CC(=O)O)CCN(CC(=O)[O-])CC4)cc3S(=O)(=O)[O-])c3ccc(=[N+](CC)CC)cc-3oc2c1.[64Cu+2]  tumour uptake (microPET imaging; athymic nude mice, U-87 MG glioma xenograft; 250 µCi, 2 h post-injection): 7.82 ± 1.06 %ID/g
CC(C)(C)NCC(SS(=O)(=O)O)c1ccccc1 (stereo not shown)  Vss (Swiss Webster CFW mouse, female, plasma; intravenous, 15 mg/kg, from 0 h to infinity): 0.984 L/kg
COc1ccc2cc(NC(=O)c3cc(-c4cccnc4)nc4ccccc34)ccc2c1  kcat/Km (Cytochrome P450 3A4 (CYP3A4, Homo sapiens, UniProt P08684); substrate, item: metabolite M2; baculosomes): 30800 M⁻¹ s⁻¹
COC(=O)c1ccc(-c2cn(Cc3cc(Cl)ccc3O[11CH3])nn2)cc1  distribution volume (PET, two-tissue compartment model; rhesus monkey, brain Insula; dose not given): 0.619 mL/cm³
COc1cc(NC(C)=O)c2c(c1O)-c1c(OC)c(OC)cc3c1C(C2)N(C)CC3 (stereo not shown)  A coefficient (Wistar rat male, plasma; oral, 200 mg/kg, two-compartment model): 76.9 ± 53.9
O=C(O)CN1CCNCCNCCN(CC(=O)O)CC1  sum log K3 + log K4 (pH-potentiometric titration; 25 °C, 0.1 M KCl): 5.6
CC(=O)N[C@H](CC(=O)O)C(=O)N[C@H](Cc1c[nH]c2ccccc12)C(=O)N[C@H](Cc1ccccc1)C(=O)N[C@H](CCCCN)C(=O)N[C@H](C)C(=O)N[C@H](Cc1ccccc1)C(=O)N[C@H](Cc1ccc(O)cc1)C(=O)N[C@H](CC(=O)O)C(=O)N[C@H](CCCCN)C(=O)N[C@@H](C(=O)N[C@H](C)C(=O)N[C@H](CCC(=O)O)C(=O)N[C@H](CCCCN)C(=O)N[C@H](Cc1ccccc1)C(=O)N[C@H](CCCCN)C(=O)N[C@H](CCC(=O)O)C(=O)N[C@H](C)C(=O)N[C@H](Cc1ccccc1)C(N)=O)C(C)C  AUC(0-t) (statin-treated high-risk CHD men, plasma; oral, 300 mg daily, day 13, 0 to 8 h, mean, detected subjects only): 25.5 ng·h/mL
NC12CNCCNCC(NCc3ccc(CNC(=O)CCCC(=O)NCc4ccc(-c5nncnn5)cc4)cc3)(CNCCNC1)CNCCNC2.[64Cu+2]  mean absorbed dose (OLINDA dosimetry; ovaries; 24 h pretargeting interval, together with: huA33-TCO pretargeting): 0.0404 rad/mCi
COc1cc(CNC(=O)C[C@H](C)CCC=C(C)C)ccc1OCc1cn(-c2ccc(Cl)cc2Cl)nn1  growth percent (SR leukaemia cells; SRB; 10 µM, 48 h): 79.8%
COc1cc(-c2nc3ccccc3s2)cc(CN(Cc2ccccn2)Cc2ccccn2)c1O  pKa3 (UV-vis spectrophotometric titration; MeOH-water, MeOH up to 20%; 50 µM): 8.46
COC(=O)c1ccc2c(c1)NC(=O)/C2=C(\Nc1ccc2c(c1)CCN2C(=O)CN1CCOCC1)c1ccccc1  AUC(0-t) (cynomolgus monkey, plasma; intravenous, 2 mg/kg): 2030 ng·h/mL
CCCCCCCC(=O)OC[C@H](NC(=O)[C@H](CO)NC(=O)CN)C(=O)N[C@@H](Cc1ccccc1)C(=O)N[C@@H](CC(C)C)C(=O)N[C@@H](CO)C(=O)N1CCC[C@H]1C(=O)N[C@@H](CCC(=O)O)C(=O)N[C@@H](Cc1cnc[nH]1)C(=O)N[C@@H](CCC(N)=O)C(=O)N[C@@H](CCCNC(=N)N)C(=O)N[C@H](C(=O)N[C@@H](CCC(N)=O)C(=O)N[C@@H](CCC(N)=O)C(=O)N[C@@H](CCCNC(=N)N)C(=O)N[C@@H](CCCCN)C(=O)N[C@@H](CCC(=O)O)C(=O)N[C@@H](CO)C(=O)N[C@@H](CCCCN)C(=O)N[C@@H](CCCCN)C(=O)N1CCC[C@H]1C(=O)N1CCC[C@H]1C(=O)N[C@@H](C)C(=O)N[C@@H](CCCCN)C(=O)N[C@@H](CC(C)C)C(=O)N[C@@H](CCC(N)=O)C(=O)N1CCC[C@H]1C(=O)N[C@@H](CCCNC(=N)N)C(=O)O)C(C)C  heart rate (chronic HFrEF patients non-paced; intravenous infusion, 0.1 µg/kg/min, 30 min after infusion end): 71.8 ± 13.6 bpm
Cn1c(=O)oc2ccc(-c3ccc(CC(C#N)NC(=O)C4CNCCCO4)c(F)c3)cc21 (stereo not shown)  urine WBC positive incidence (human; oral, 20 mg once daily, TEAE, multiple ascending dose): 0%
CC(C)[C@H](NC(=O)CNC(=O)[C@H](CCC(N)=O)NC(=O)[C@H](C)N)C(=O)O  AUC(0-inf) (human, plasma; intravenous infusion, 30 mg/kg single, 15 min infusion, geometric mean): 490 ng·h/mL
NC(=O)[C@@H](CCCCNC(=O)CNC(=O)CCC(=O)NCCc1c[nH]cn1)NC(=O)[C@@H](CCC(=O)O)NC(=O)[C@@H](CCCCNC(=O)CNC(=O)CCC(=O)NCCc1c[nH]cn1)NC(=O)[C@@H](Cc1ccc(O)cc1)NC(=O)CN1CCN(CC(=O)O)CCN(CC(=O)O)CCN(CC(=O)O)CC1 [indium-111 labelled]  muscle activity concentration (SPECT; human CEACAM5 tumour patients; dose not given, 24 h, 100 µg IMP288, together with: TF2 75 mg, 5 days interval): 0.068 %ID/kg
CCC(=O)N[C@@H](C)C(=O)OCC(=O)N[C@@H](C)C(=O)O  depolymerization half-life (water; pH 8, 25 °C): 45 h
Nc1nccc(-c2cn(C3CC3)c3ccccc23)n1  share of radioactivity (radio-HPLC, co-eluting peaks pooled; human male, urine; oral, 110 mg, 0 to 96 h, sample holds 4.16% dose; reference: sample radioactivity): 0.42%
[64Cu+2].c1ccc(CNCc2ccc(CN3CCCN4CCNCCCN(CC4)CC3)cc2)nc1  tissue uptake (CXCR4; NOD/SCID mouse, U87 and U87-stb-CXCR4 xenografts, blood; iv, 90 min, no blocking dose, ex vivo): 1.44 ± 0.1 %ID/g
CCCCCCCCCCCCCCCC(=O)N[C@@H](CCCCN)C(=O)N[C@@H](CCCCN)C(=O)N[C@@H](CO)C(=O)N[C@@H](CCCNC(=N)N)C(=O)N[C@@H](C)C(=O)N[C@@H](CC(C)C)C(=O)N[C@@H](Cc1ccccc1)C(N)=O  activated partial thromboplastin time (cynomolgus monkey, female; 10 mg/kg, day 5): 27.3 ± 3.7 s
COCCOCCOCCOCCOCCOCCOCCOCCC(=O)NCCCc1cc2cc3nc(cc4[nH]c(cc5nc(c(OC)c1[nH]2)C(=O)C5(C)C)cc4CCc1ccc(C(=O)O)cc1)CC3(C)C  Qy emission FWHM (water with 5% DMF; room temperature): 32 nm
NC[C@@H](C(=O)Nc1ccc(-c2cn[nH]c2)cc1)c1ccccc1  iris score (OECD 405 eye irritation; New Zealand White rabbit, eye; topical, 0.1%, 48 h (day 3), scale 0 to 2; direction not given): 0
[64Cu+2].c1cnc(CNCc2ccc(CN3CCCN4CCNCCCN(CC4)CC3)cc2)nc1  tissue uptake (CXCR4; NOD/SCID mouse, U87 and U87-stb-CXCR4 xenografts, heart; iv, 90 min, no blocking dose, ex vivo): 0.81 ± 0.06 %ID/g
O=C(O)CCC(NP(=O)(O)OCCC[C@@H](NC(=O)CC[C@H](NC(=O)CCCCCNC(=O)c1ccc([18F])cc1)C(=O)O)C(=O)O)C(=O)O (stereo partly shown)  tissue uptake (mouse, CWR22Rv1 xenograft, liver; dose not given, 4 h, blocking agent pre-dosed): 0.129 ± 0.008 %ID/g
COc1ccc(/C=C/c2ccc(-c3ccc(C)cn3)nc2)cc1  fluorescence quantum yield (aqueous HEPES buffer; pH 7.4, together with: quinine bisulfate reference): 0.05
CC(C)C[C@@H]1NC(=O)[C@@H]2CCCN2C(=O)[C@H](CO)NC(=O)[C@@H](NC(=O)[C@H](Cc2c[nH]cn2)NC(=O)[C@H](CO)NC(=O)[C@H](Cc2ccc(O)cc2)NC(=O)[C@H](CC(=O)O)NC(=O)CNC(=O)CN2CCN(CC(=O)O)CCN(CC(=O)O)CCN(CC(=O)O)CC2)CSSC[C@@H](C(=O)N[C@H](C(=O)N[C@@H](Cc2ccc(O)cc2)C(=O)N2CCC[C@H]2C(=O)N[C@@H](CC(=O)O)C(=O)N2CCC[C@H]2C(=O)N[C@@H](CCC(=O)O)C(=O)NCC(=O)NCC(=O)NCC(N)=O)[C@@H](C)O)NC(=O)[C@H](CCCCN)NC(=O)[C@H](Cc2c[nH]c3ccccc23)NC(=O)[C@H](Cc2c[nH]c3ccccc23)NC(=O)[C@@H]2CCCN2C(=O)[C@H](Cc2ccc(O)cc2)NC(=O)[C@H](Cc2ccc(O)cc2)NC(=O)[C@H](CCCNC(=N)N)NC1=O [gallium-68 labelled]  SUVmax (PET/CT; male NOD-SCID mice, heart; intravenous, 3.7 MBq, 60 min): 0.71 ± 0.13 SUV
O=C(NCCCN(CCCCN(CCCNC(=O)c1cccc(=O)n1[O-])C(=O)c1cccc(=O)n1[O-])C(=O)c1cccc(=O)n1[O-])c1cccc(=O)n1[O-].[89Zr+4]  intact complex (radio-TLC; PBS; 5 d, pH 7.4, 37 °C, together with: K^+ 10-fold excess): 98.5 ± 2.2%
[11CH3]c1ccc2nc(C3CCC3)n(-c3ccc4[nH]ncc4c3)c2n1  absorbed radiation dose (human female, kidneys): 6.3 µSv/MBq
O=C(CCCCC[N+]#[C][99Tc-5]([C]#[N+]CCCCCC(=O)N[C@H]1C(O)O[C@H](CO)[C@@H](O)[C@@H]1O)([C]#[N+]CCCCCC(=O)N[C@H]1C(O)O[C@H](CO)[C@@H](O)[C@@H]1O)([C]#[N+]CCCCCC(=O)N[C@H]1C(O)O[C@H](CO)[C@@H](O)[C@@H]1O)([C]#[N+]CCCCCC(=O)N[C@H]1C(O)O[C@H](CO)[C@@H](O)[C@@H]1O)[C]#[N+]CCCCCC(=O)N[C@H]1C(O)O[C@H](CO)[C@@H](O)[C@@H]1O)N[C@H]1C(O)O[C@H](CO)[C@@H](O)[C@@H]1O (stereo partly shown)  tumour/non-tumour ratio (SPECT/CT; BALB/c nude mouse HCT-116 xenograft; 2 h; reference: tumour over non-tumour): 4.73 ± 0.15
CC(C)C[C@@H](NC(=O)[C@H](NC(=O)[C@H]1CCCN1)[C@H](C)O)C(=O)N[C@H](Cc1c[nH]cn1)C(=O)N[C@@H](C(=O)N[C@H](Cc1c[nH]cn1)C(=O)N[C@H](CC(N)=O)C(=O)N[C@H](CCCNC(=N)N)C(=O)N[C@H](CCCNC(=N)N)C(=O)N[C@H](CCCNC(=N)N)C(=O)N[C@H](CCCNC(=N)N)C(=O)N[C@H](CCCNC(=N)N)C(N)=O)[C@H](C)O  beta half-life (Beagle dog, plasma; intravenous, 3 mg/kg, single dose): 2.9 h
CC12CC(c3ccc(S(C)(=O)=O)cc3)C3=C4CCC(=O)C=C4CCC3C1CCC2(O)C(F)(F)C(F)(F)F (stereo not shown)  tlast (item: total radioactivity; human, whole blood; oral, 5 mg): 48.1 h
CCCC(CCC)NC(=O)c1ccc(OC2OC(C(=O)O)C(O)C(O)C2O)c(OC)c1 (stereo not shown)  metabolite peak area (LC-MS; Sprague-Dawley rats, pooled sexes, plasma; oral, 200 mg/kg of parent drug, 1 h; reference: total peak area): 17.4%

Excerpt of the above:
COCCOCCOCCOCCOCCOCCOCCOCCC(=O)NCCCc1cc2cc3nc(cc4[nH]c(cc5nc(c(OC)c1[nH]2)C(=O)C5(C)C)cc4CCc1ccc(C(=O)O)cc1)CC3(C)C  Qy emission FWHM (water with 5% DMF; room temperature): 32 nm
NC[C@@H](C(=O)Nc1ccc(-c2cn[nH]c2)cc1)c1ccccc1  iris score (OECD 405 eye irritation; New Zealand White rabbit, eye; topical, 0.1%, 48 h (day 3), scale 0 to 2; direction not given): 0
